Measurements pooled from the literature.
± gives the spread as reported.

| Compound | assay | system | conditions | endpoint | result |
| --- | --- | --- | --- | --- | --- |
| COc1cc2c(Nc3ccc(Cl)c(Cl)c3F)ncnc2cc1OC[C@@H]1C[C@@H]2CN(C)C[C@@H]2C1 | rapid equilibrium dialysis | FVB mouse, brain tissue | 5 µM, 6 h, pH 7.4 | unbound fraction | 0.11% |
| CCn1ncc2c1-c1cnc(N)c(c1)O[C@H](C)c1cc(F)ccc1-c1nn(C)nc1C2 |  | Balb/c nude mouse, female, PDX, plasma | po, 5 mg/kg BID, 1 h, 5 days dosing | unbound concentration | 500 ± 15 nM |
| CN1CCN(C(=O)[C@H](CCCN[C@@H]2C[C@H]2c2ccc(F)cc2)NC(=O)c2ccc(-n3ccnn3)cc2)CC1 |  | NOD/SCID mouse MV4-11 xenograft, plasma | oral, 15 mg/kg/day, 24 h | unbound plasma concentration | 2.9 ng/mL |
| CO[C@H]1/C=C/O[C@@]2(C)Oc3c(C)c(O)c4c(c3C2=O)C2=NC3(CCN(CC(C)C)CC3)NC2=C(NC(=O)/C(C)=C/C=C/[C@H](C)[C@H](O)[C@@H](C)[C@@H](O)[C@@H](C)[C@H](OC(=O)Nc2c(C)nc3ccccn23)[C@@H]1C)C4=O | rapid equilibrium dialysis | mouse, plasma |  | unbound fraction | 8.64 |
| NS(=O)(=O)c1nnc(NC(=O)C2CCCC3(CCCCC3)C2)s1 (centres unmarked) |  | mouse, plasma |  | unbound fraction | 0.12 |
| C=CC(=O)N1CC2(CCN(c3nc4c(c(-c5cc(O)cc6ccccc56)c3C#N)C[C@H]3C[C@@H]4C3(C)C)C2)C1 |  | mouse, plasma | oral, 5 mg/kg | unbound AUC | 1 nM·h |
| Cc1ccc(CCC(=O)Nc2nnc(S(N)(=O)=O)s2)cc1 |  | BALB/c mouse, male, plasma | oral, 20 mg/kg, 0.5 h | unbound plasma concentration | 3.23 ng/mL |
| C[C@@H](N)COc1ccc(-c2cnc3ccc(N[C@H](C)c4cccc(F)c4)nn23)cc1 |  | female Balb/c nude mouse | 100 mg/kg once daily, 1 h, steady state | unbound brain concentration | 28 ± 2 nM |
| Cc1c(C(=O)O)ccc2c3n(nc12)[C@@H]1[C@H](C3)N(CC2CC2)[C@@]2(C(=O)Nc3cc(Cl)ccc32)[C@H]1c1cccc(Cl)c1F |  | CD1 mouse, plasma | po, 1.5 mg/kg | unbound Cmax | 7.5 nM |
| CCn1ncc2c1-c1cnc(N)c(c1)O[C@H](C)c1cc(F)ccc1-c1nn(C)nc1C2 |  | female Balb/c nude mouse | 3 mg/kg twice daily, 1 h, steady state | unbound plasma concentration | 275 ± 32 nM |
| NS(=O)(=O)c1nnc(NC(=O)CCC2CCC(F)(F)CC2)s1 |  | mouse, plasma |  | unbound fraction | 0.22 |

A few entries again:
| Compound | assay | system | conditions | endpoint | result |
| --- | --- | --- | --- | --- | --- |
| NS(=O)(=O)c1nnc(NC(=O)C2CCCC3(CCCCC3)C2)s1 (centres unmarked) |  | mouse, plasma |  | unbound fraction | 0.12 |
| CO[C@H]1/C=C/O[C@@]2(C)Oc3c(C)c(O)c4c(c3C2=O)C2=NC3(CCN(CC(C)C)CC3)NC2=C(NC(=O)/C(C)=C/C=C/[C@H](C)[C@H](O)[C@@H](C)[C@@H](O)[C@@H](C)[C@H](OC(=O)Nc2c(C)nc3ccccn23)[C@@H]1C)C4=O | rapid equilibrium dialysis | mouse, plasma |  | unbound fraction | 8.64 |
